Assay results of several laboratories.
Numbered parts are unrelated; each lists some results of a single study.

Study 1 — technique: protein binding microarray; form: double-stranded DNA, one strand shown; medium: in vitro; tested at: not given; baseline: not given; reading: higher = stronger binding
Target: Histone acetyltransferase KAT6A, winged helix 2, GST fusion (KAT6A, Homo sapiens, UniProt Q92794, residues 85-181)
Setting: 8-mer, flanks averaged, mean of 2 arrays, mostly near background
Residues (chain): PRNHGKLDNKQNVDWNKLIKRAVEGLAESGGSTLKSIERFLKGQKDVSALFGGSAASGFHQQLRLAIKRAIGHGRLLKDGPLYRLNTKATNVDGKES
For `GCCCGAGC`, the E-score was 0.199.
`TATATGAA` gave an E-score of 0.035.
The E-score of `CTCGTCGA` is reported as 0.0856.
`TAGACCAA` gave an E-score of -0.084.
With `ATGGCAGG` the E-score was 0.147.
`GCGTAGCC` gave an E-score of 0.114.
With `ATGGACCC` the E-score was -0.127.
`ACCTCTCC` has an E-score of -0.0111.
With `ATTTATCA` the E-score was 0.105.
With `GGCTTCTA` the E-score was -0.0732.
The E-score of `ATTGTACG` is reported as -0.137.
`AGCCTCTG` gave an E-score of -0.212.
For `AGGTGTAA`, the E-score was -0.119.
`AAGACACT` has an E-score of -0.00566.
`CTAATACA` gave an E-score of -0.122.
The E-score of `ATGTATTA` is reported as -0.142.
`ATGAGTAC` has an E-score of -0.18.
`CTGTAGTC` gave an E-score of -0.0872.
With `CGTTCCGC` the E-score was 0.109.
`GTGCCTAA` has an E-score of -0.0884.
With `CCCGCCAA` the E-score was 0.173.
For `AGTTCTGC`, the E-score was 0.0742.

Study 2 — technique: RNA Bind-n-Seq; form: RNA; medium: in vitro; tested at: 20 nM; setting: 6-mer, flanks averaged, single round; added: 150 mM KCl; baseline: input library; reading: higher = stronger binding
Target: TAR DNA-binding protein 43, full length, His tag (TARDBP, Homo sapiens, UniProt Q13148, residues 1-414)
`AUGCCC`: “6-mer enrichment (R)” 0.657.
Under “6-mer enrichment (R)”, `CAUGUU` is recorded as 0.664.
Under “6-mer enrichment (R)”, `CUUUUA` is recorded as 0.641.
Under “6-mer enrichment (R)”, `CCCUAG` is recorded as 0.679.
`AGCCUA` — result for “6-mer enrichment (R)”: 0.639.
Under “6-mer enrichment (R)”, `UGUGAC` is recorded as 0.843.
For `GACGGC`, “6-mer enrichment (R)” read 1.48.
For `UGGAGG`, “6-mer enrichment (R)” read 3.67.
`GUCAAU`: “6-mer enrichment (R)” 0.672.
`AUCUGC` — result for “6-mer enrichment (R)”: 0.616.
For `GUGUAC`, “6-mer enrichment (R)” read 0.888.
For `UAGUGC`, “6-mer enrichment (R)” read 0.794.
`UCCGAU`: “6-mer enrichment (R)” 0.579.
`UCACUU`: “6-mer enrichment (R)” 0.562.
`CUGGUG` — result for “6-mer enrichment (R)”: 1.33.
For `UUGAAA`, “6-mer enrichment (R)” read 0.681.
`UCAGUA`: “6-mer enrichment (R)” 0.63.
`ACGUAC` — result for “6-mer enrichment (R)”: 0.631.
`GUUAUU`: “6-mer enrichment (R)” 0.66.
`UCCCCA`: “6-mer enrichment (R)” 0.659.
Under “6-mer enrichment (R)”, `AGACUA` is recorded as 0.627.
`CCUCUC`: “6-mer enrichment (R)” 0.569.
For `ACCGUU`, “6-mer enrichment (R)” read 0.582.
For `GAAGGG`, “6-mer enrichment (R)” read 4.44.
Under “6-mer enrichment (R)”, `GCCAUA` is recorded as 0.694.

Study 3 — technique: protein-binding microarray; form: double-stranded DNA, one strand shown; medium: in vitro; tested at: 940 nM top; setting: 60-bp whole probe; added: salmon DNA 0.4 mg/ml; baseline: random background probes; reading: higher = stronger binding; shared flanks, not repeated: GCCTAGCAC … GTCTTGATTCGCTTGACGCTGCTG
Target: Interferon regulatory factor 5, full length, phosphomimetic (IRF5, Homo sapiens, UniProt Q13568-2, residues 1-514, S451D/S453D/S456D/S462D)
`TTAGGTTTCGGCTTTCGGTTAGTGCTA`: “fitted relative affinity” 9.66 z-score.
`GACGGACTGGGTTTCCGGACGTGCTAG` — result for “fitted relative affinity”: -0.137 z-score.
For `GACGGTTTCGTCTTTCGGGACGTGCTA`, “fitted relative affinity” read 7.15 z-score.
Under “fitted relative affinity”, `GACGGTATTGGTTTCGGGACGTGCTAG` is recorded as 6.47 z-score.
`TCAAAAATCATTTTCTCACTGTGCTAG` — result for “fitted relative affinity”: 0.414 z-score.
For `TCAACTTCTCTTTTTGCACTGTGCTAG`, “fitted relative affinity” read 1.22 z-score.
`TTAGGAATCCTTTTCCTTTAGTGCTAG`: “fitted relative affinity” -0.206 z-score.
`TCAGTAATCGAAATCTTACTGTGCTAG`: “fitted relative affinity” -0.00416 z-score.
`TTTTTTTTGTATTTTTGATAGTGCTAG`: “fitted relative affinity” 1.33 z-score.
`TTAGGTCTCCTTCTCCTTTGGTGCTAG`: “fitted relative affinity” 0.694 z-score.
`GACGATTTCGCGTTTCGAGACGTGCTA` — result for “fitted relative affinity”: 0.555 z-score.
`GACGGTATCGGACTGGCGACGTGCTAG` — result for “fitted relative affinity”: 2.75 z-score.
Under “fitted relative affinity”, `TGCCTTTTTTTTTTTTTCTGGTGCTAG` is recorded as 1.38 z-score.
`TTAGATATCAGTCTCGATGAGTGCTAG`: “fitted relative affinity” 2.02 z-score.
Under “fitted relative affinity”, `GTCGGACTGCTTATCCTGACGTGCTAG` is recorded as -0.423 z-score.
Under “fitted relative affinity”, `GACGATTTCGGGTATCAAGACGTGCTA` is recorded as 0.724 z-score.
For `GACGATTTCGGGTATCGAGCCGTGCTA`, “fitted relative affinity” read 1.18 z-score.
Under “fitted relative affinity”, `TTAGGTCTCCCTTTCCTTTAGTGCTAG` is recorded as 0.625 z-score.
`GACGATCTCAGTCGCGAGACGTGCTAG`: “fitted relative affinity” -0.0904 z-score.
Under “fitted relative affinity”, `TTAGGTCTCCTTGTCCTTTAGTGCTAG` is recorded as 0.202 z-score.
Under “fitted relative affinity”, `GACGGTATCTTTTTCCTGACGTGCTAG` is recorded as 1.01 z-score.
For `TCATGCTTCGAGATCTCACTGTGCTAG`, “fitted relative affinity” read 0.108 z-score.
`TTAGATTTCAGTATCTATTAGTGCTAG` — result for “fitted relative affinity”: 1.78 z-score.
For `TCAACCTTCGAGTCTGCAACTGTGCTA`, “fitted relative affinity” read -0.201 z-score.
For `TTAGGTCTCAGTATCGGTTAGTGCTAG`, “fitted relative affinity” read 5.07 z-score.

Study 4 — technique: RNA Bind-n-Seq; form: RNA; medium: in vitro; tested at: 365 nM; baseline: no-protein control; reading: higher = stronger binding
Target: RNA binding protein fox-1 homolog 2, RRM domain, GST-SBP tag (RBFOX2, Homo sapiens, UniProt O43251-10, residues 100-194)
Setting: natural RNA segment, single round, ends assumed
Shared flanks, not repeated: GGGAGUUCUACAGUCCGACGAUC … UGGAAUUCUCGGGUGCCAA
Target sequence (chain): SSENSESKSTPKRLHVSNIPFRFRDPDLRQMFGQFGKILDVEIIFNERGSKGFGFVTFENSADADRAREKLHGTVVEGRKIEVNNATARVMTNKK
`CACCCAGAACAUUUCUGCUGCGUCAGCUGCGGAGAGCCUUUUGGAGAAGAGGGUUUCCACGAGCGGGAGGGUCGUCCGUACUGCCGGCGGGACUUCCUGCAGCUGUUCGC`: “RBNS enrichment (R)” 0.306.
`AUCCCUAUACCAUCCCACCCUGUUGUAUGUAUUAUAGGAUUUGUAUUUUCUUCUCCUCCCCUCCUCUUCCUCCUUUCUCUUUGCAUUCAAGAUUAUGAAACUUUGCUGUG`: “RBNS enrichment (R)” 1.62.
`AGAGUGGCCCGAGGCCGUCCCUCACCGGGCAUGUUCCCUCUGGCUGCCCACUCCCUCAGGGCCCACAUGUCCUGCCACUCGCCACUCUGAGCACGAGUUCACCUUCCAGA` — result for “RBNS enrichment (R)”: 0.547.
`AAGAGCAGGGCAGGAAGACAGUUCAGGAGAUGGGUGUCAAGUUUUCUCUUGGUUGAUUUCAUUCCCUUGCAUCUUUCCCCUGUGCUGACAGGGGGCAGAAGGCACAACCA` — result for “RBNS enrichment (R)”: 0.341.
`AUUUUGCUAGAGCUCAAGUAAUAGAAACUUAGUUUCAGAAUCCUGAAUCCAACAUCUAUUUGGAAUGAAUGUAAGACCACAGGUAGCAGGCAUACUCCUGCUUAGGAUAA`: “RBNS enrichment (R)” 0.702.
`CUAAUCUAAGUUAAUUAAUGUGGUAAUGAUGUUAUUAAGUGUGGAAGCAAAUGCAGUAUAUUAAAGGUGAACACCACACUGAAACUCCCAACUCCUGACAGAAUAACCAG`: “RBNS enrichment (R)” 0.521.
`AAGGCAUAAAUGAUAAUAAGUAAGCCUGGUAAUAUGUUCUUAUUUAAGAAGAACCUGAGAAGGUUUUAUUUAUCGGUGGGGGAAGUAUAGCAAACGGUUCUAAAUGAAAA`: “RBNS enrichment (R)” 0.692.
`GGUGGCCCUUGCAGUUCAGCACCACCCUAGUCCCUUCCCCUCCCUGGCUCCCAUGACCAUACUGAGGGACCAACUGGGCCCAAGACAGAUGCCCCAGAGCUGUUUAUGGC` — result for “RBNS enrichment (R)”: 0.396.
For `CUGGCUCUUCGUCCCCAGUCUCCCAGUGGGGGGGCCCUGGGGAGAUUCCAGGGGUGUGAUUGAAUAUUUAUCUCUUGCUCUUGUAUGUUUGUUGGGGAGAAGAAGCACUU`, “RBNS enrichment (R)” read 26.2.
`UGAGACAUGACUUCAAGACUCGAGACUUGGUAGAAUCCUUUUACUUGGCCAUCUGAGUAGAAAUAGGAGUAGCUUUAAGAAAAAGGCAGAUUCUCUAAAGGAAUUUGGAG`: “RBNS enrichment (R)” 0.622.
`CUUGGCACUGAUGGGCACUGGAAAACAUAGAGUAGACCUGAGAUGCUGGUCAAGCCCCCUUUGAUUGAGUUCAUCAUGAGCCGUUGCUAAUGCCAGGCCAGUAAAAGUAU`: “RBNS enrichment (R)” 0.606.
`ACAAAGGUUGAUCUCUAAAAAAACAAAAAACCCCAUUAAAACAAUAAAGAAUUUAUUUUGCCUAAAAUGUUAAAUUUAUUUUUUGAGCUGUAACAUGAAGAAUUUGGAUU`: “RBNS enrichment (R)” 0.86.

Study 5 — technique: aptamer microarray, sandwich; form: DNA with 2'F-ANA; medium: in vitro; tested at: 200 nM; added: Cy3 exosite-II aptamer, 400 nM; reading: higher = stronger binding; strand: GGTTGGTGTGGTTGG
Target: Prothrombin, mature alpha-thrombin (F2, Homo sapiens, UniProt P00734)
Setting: whole 15-mer aptamer, many near background
`2'F-ANA at 1 2 3 4 5 8 9 11 12 13 15`: “mean fluorescence intensity” 70.2 a.u.
`2'F-ANA at 1 4 5 6 9 11 13 14 15`: “mean fluorescence intensity” 44.8 a.u.
`2'F-ANA at 2 3 8 12 14` — result for “mean fluorescence intensity”: 518 a.u.
For `2'F-ANA at 1 2 3 4 5 7 8 9 10 15`, “mean fluorescence intensity” read 76.5 a.u.
`2'F-ANA at 1 2 3 4 6 7 12 13 14 15`: “mean fluorescence intensity” 85.2 a.u.
For `2'F-ANA at 3 5 7 9 10 11 14`, “mean fluorescence intensity” read 55.5 a.u.
Under “mean fluorescence intensity”, `2'F-ANA at 2 13 14` is recorded as 148 a.u.
`2'F-ANA at 1 2 3 5 8 9 11` — result for “mean fluorescence intensity”: 70.9 a.u.
For `2'F-ANA at 1 2 3 10 12 13 15`, “mean fluorescence intensity” read 91.2 a.u.
`2'F-ANA at 2 7 9 10`: “mean fluorescence intensity” 136 a.u.
`2'F-ANA at 1 5 6 7 12 14`: “mean fluorescence intensity” 53.5 a.u.
`2'F-ANA at 1 3 5 8 10 15` — result for “mean fluorescence intensity”: 48.4 a.u.
`2'F-ANA at 3 4 5 6 7 9 10 15`: “mean fluorescence intensity” 53.8 a.u.
`2'F-ANA at 2 3 6 7 8 9 11 12 13 14 15` — result for “mean fluorescence intensity”: 357 a.u.
For `2'F-ANA at 3 6 7 10 11 12 13`, “mean fluorescence intensity” read 536 a.u.
`2'F-ANA at 1 2 4 5 10 11 12 15` — result for “mean fluorescence intensity”: 71.2 a.u.
`2'F-ANA at 1 4 5 7 8 9 10 11 12 13 14 15`: “mean fluorescence intensity” 54.4 a.u.

For quick reference, copied from above (study 1):
With `ATGGCAGG` the E-score was 0.147.
`GCGTAGCC` gave an E-score of 0.114.
With `ATGGACCC` the E-score was -0.127.
`ACCTCTCC` has an E-score of -0.0111.
With `ATTTATCA` the E-score was 0.105.
With `GGCTTCTA` the E-score was -0.0732.
The E-score of `ATTGTACG` is reported as -0.137.
`AGCCTCTG` gave an E-score of -0.212.
For `AGGTGTAA`, the E-score was -0.119.
`AAGACACT` has an E-score of -0.00566.
`CTAATACA` gave an E-score of -0.122.
The E-score of `ATGTATTA` is reported as -0.142.
`ATGAGTAC` has an E-score of -0.18.
`CTGTAGTC` gave an E-score of -0.0872.
With `CGTTCCGC` the E-score was 0.109.
`GTGCCTAA` has an E-score of -0.0884.
